# Measurements gathered from unrelated publications.
# Each numbered part is a random draw from the data of one study; scales do not carry over between parts. Positions count from the first letter of the parent shown.
# Sequence of UniProt P00519 (whole entry, looked up): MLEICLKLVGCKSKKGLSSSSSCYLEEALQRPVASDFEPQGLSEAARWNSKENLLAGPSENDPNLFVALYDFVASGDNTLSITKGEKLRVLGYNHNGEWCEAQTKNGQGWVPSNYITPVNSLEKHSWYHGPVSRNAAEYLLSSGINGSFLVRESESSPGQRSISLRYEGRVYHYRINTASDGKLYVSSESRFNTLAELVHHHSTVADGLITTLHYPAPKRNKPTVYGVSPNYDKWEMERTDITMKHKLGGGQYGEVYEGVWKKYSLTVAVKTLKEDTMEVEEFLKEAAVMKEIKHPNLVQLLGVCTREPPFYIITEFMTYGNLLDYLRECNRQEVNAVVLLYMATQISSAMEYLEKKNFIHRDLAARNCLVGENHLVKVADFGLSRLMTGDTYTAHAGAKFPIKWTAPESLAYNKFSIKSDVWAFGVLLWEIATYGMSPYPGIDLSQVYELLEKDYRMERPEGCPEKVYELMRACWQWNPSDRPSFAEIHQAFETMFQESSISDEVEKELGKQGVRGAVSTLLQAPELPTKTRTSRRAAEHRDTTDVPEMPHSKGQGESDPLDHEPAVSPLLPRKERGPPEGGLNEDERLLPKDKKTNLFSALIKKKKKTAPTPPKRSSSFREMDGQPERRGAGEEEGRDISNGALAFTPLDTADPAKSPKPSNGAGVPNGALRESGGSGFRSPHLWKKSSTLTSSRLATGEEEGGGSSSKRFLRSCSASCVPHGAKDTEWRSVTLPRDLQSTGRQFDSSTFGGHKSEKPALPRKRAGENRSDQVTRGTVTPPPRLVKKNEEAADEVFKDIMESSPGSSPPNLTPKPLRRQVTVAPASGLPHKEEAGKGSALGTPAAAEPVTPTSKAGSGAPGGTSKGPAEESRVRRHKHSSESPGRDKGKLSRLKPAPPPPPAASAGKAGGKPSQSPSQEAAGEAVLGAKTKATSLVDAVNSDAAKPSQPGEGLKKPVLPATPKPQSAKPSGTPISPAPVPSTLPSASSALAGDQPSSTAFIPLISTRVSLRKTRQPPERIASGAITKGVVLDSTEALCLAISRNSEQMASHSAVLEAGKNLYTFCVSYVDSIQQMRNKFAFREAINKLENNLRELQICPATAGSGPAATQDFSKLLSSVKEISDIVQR
# Sequence of UniProt Q16566 (whole entry, looked up): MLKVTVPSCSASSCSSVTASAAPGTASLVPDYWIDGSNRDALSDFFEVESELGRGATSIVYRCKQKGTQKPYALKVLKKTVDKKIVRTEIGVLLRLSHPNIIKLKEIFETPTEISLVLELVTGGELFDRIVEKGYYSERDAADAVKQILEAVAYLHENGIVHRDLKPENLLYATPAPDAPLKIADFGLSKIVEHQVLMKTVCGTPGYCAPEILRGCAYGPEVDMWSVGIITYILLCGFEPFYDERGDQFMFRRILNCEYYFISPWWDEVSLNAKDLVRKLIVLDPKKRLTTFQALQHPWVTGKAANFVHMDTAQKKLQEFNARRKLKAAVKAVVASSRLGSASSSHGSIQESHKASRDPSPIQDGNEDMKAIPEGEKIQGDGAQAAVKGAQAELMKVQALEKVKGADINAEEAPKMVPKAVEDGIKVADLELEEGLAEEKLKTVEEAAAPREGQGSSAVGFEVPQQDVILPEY
# Sequence of UniProt P42336 (whole entry, unmodified, looked up): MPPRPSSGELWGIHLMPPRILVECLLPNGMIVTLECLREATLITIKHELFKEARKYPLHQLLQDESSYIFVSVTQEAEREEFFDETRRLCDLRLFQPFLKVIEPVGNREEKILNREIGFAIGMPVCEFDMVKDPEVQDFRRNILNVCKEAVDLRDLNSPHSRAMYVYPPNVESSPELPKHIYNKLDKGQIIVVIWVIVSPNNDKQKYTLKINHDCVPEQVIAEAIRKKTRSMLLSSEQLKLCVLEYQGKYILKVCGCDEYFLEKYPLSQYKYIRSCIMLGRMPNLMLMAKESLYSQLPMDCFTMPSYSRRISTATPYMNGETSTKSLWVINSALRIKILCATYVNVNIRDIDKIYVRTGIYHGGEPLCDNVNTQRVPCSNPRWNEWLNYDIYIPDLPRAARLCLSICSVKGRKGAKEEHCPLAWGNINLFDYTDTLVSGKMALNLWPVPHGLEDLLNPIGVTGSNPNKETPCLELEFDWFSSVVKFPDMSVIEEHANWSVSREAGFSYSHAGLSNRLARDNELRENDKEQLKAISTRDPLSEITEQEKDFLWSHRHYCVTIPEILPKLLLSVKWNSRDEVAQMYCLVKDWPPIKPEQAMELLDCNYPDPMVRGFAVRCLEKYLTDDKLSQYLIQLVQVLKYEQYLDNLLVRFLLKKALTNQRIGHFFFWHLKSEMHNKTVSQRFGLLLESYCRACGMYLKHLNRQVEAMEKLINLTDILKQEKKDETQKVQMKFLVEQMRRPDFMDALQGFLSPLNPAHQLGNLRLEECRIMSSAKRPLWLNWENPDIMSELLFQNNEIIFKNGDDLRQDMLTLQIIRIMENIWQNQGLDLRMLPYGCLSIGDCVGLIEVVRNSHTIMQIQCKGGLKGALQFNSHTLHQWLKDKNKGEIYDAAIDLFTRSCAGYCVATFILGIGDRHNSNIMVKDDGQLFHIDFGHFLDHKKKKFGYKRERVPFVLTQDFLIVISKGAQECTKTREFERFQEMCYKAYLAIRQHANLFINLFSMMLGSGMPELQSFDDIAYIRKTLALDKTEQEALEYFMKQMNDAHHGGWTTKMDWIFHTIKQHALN
# Sequence of UniProt Q96L34 (whole entry, looked up): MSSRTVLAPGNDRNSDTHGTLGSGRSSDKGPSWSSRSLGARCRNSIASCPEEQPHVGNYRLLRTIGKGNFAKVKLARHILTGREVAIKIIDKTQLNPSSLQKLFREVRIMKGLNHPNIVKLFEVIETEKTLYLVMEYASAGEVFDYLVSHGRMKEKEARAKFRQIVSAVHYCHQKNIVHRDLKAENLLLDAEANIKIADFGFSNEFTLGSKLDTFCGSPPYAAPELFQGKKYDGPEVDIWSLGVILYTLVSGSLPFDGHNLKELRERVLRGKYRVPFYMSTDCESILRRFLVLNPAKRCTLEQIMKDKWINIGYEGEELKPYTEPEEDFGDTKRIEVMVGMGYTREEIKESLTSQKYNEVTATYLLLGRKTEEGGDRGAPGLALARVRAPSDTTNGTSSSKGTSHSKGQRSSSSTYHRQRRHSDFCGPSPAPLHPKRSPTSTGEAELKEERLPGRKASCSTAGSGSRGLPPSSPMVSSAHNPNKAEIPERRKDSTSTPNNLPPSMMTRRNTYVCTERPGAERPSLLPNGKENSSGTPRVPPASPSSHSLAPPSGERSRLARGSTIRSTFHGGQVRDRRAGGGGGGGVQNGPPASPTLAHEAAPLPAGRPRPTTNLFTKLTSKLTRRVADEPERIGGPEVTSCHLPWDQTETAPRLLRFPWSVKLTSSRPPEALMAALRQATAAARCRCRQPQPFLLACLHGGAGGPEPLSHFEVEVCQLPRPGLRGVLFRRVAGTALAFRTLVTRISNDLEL
# Sequence of UniProt P35968 (whole entry, looked up): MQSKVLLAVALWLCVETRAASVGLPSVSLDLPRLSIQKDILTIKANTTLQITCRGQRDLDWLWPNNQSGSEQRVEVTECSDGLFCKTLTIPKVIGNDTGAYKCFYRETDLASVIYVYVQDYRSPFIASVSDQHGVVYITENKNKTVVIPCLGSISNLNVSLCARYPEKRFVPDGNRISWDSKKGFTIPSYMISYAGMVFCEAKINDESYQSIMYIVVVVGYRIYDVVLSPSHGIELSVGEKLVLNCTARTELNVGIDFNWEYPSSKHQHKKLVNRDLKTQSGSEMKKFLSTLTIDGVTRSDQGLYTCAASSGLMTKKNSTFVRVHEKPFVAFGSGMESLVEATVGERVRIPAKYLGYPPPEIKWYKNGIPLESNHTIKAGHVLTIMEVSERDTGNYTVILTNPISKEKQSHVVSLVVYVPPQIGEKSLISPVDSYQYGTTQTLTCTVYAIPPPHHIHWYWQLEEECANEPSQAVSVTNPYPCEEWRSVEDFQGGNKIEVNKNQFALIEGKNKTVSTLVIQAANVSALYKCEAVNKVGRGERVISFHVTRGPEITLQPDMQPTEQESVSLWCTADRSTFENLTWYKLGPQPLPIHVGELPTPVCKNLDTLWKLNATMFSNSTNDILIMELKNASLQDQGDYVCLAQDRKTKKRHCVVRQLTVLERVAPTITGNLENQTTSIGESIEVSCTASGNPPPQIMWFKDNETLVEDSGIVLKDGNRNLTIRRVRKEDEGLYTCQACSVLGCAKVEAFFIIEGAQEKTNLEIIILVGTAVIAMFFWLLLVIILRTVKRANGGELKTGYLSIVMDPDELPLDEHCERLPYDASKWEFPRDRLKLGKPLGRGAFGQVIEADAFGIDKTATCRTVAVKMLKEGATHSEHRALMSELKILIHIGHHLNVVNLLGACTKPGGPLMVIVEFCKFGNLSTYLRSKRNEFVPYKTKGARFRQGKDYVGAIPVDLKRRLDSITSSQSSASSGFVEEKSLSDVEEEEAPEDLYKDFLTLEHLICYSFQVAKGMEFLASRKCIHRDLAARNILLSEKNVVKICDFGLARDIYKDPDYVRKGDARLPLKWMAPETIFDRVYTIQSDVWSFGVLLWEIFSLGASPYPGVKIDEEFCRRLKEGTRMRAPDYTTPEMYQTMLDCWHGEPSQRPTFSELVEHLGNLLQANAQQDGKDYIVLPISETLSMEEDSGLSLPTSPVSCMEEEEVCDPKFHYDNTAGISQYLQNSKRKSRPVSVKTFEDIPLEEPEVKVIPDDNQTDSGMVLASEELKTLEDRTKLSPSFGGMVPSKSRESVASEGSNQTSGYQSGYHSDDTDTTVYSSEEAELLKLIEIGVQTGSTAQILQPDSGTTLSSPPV

# Set 1
# Target: ABI1, truncated, D143A, DHFR fusion (Arabidopsis thaliana)
# Technique: DHFR PCA, deep sequencing
# Matrix: yeast
# Notes: methotrexate growth selection, single substitutions
# Together with: (+)-ABA 0.032 µM
# Baseline: wild-type fitted maximum
# Reading: higher = stronger binding
# Starting sequence: PYL1, truncated, DHFR fusion (Arabidopsis thaliana); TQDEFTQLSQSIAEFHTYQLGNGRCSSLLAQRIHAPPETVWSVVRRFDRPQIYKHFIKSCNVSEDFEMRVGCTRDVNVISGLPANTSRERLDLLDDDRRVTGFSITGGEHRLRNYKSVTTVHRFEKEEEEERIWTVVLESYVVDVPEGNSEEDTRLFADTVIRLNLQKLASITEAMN; partner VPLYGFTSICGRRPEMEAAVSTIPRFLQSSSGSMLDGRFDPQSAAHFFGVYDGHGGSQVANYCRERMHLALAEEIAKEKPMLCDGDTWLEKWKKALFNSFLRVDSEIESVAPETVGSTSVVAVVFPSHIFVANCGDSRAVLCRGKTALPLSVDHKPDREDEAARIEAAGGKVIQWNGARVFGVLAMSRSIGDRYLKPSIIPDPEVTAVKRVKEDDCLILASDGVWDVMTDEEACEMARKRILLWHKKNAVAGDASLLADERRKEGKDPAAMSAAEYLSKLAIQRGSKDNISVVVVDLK
Change,relative binding score [%]
Q19F,6.58
W134N,12
E64R,22.4
T101W,0.507
D159S,-3.87
E89G,0.867
V143H,0.765
L169M,-3.74

# Set 2
# Target: OGT, full length, His-tagged (human)
# Technique: phage display, sequencing
# Matrix: in vitro
# Concentration: 1 µg OGT
# Notes: single substitutions, 15-mer displayed peptide, unchanged parent 6.14
# Baseline: input library
# Reading: higher = stronger binding
# Starting sequence: peptide; VAYPNSYMPKYQIST
Change,fold enrichment [fold]
I13E,0.927
S6W,3.08
I13D,0.494
Q12M,1.55
T15P,3.79
T15R,3.01
K10A,2.23
V1A,4.41

# Set 3
# Compound: Nc1c(C(=O)NCc2ccc(C(=O)NCCCC3CCCCC3)cc2)cnn1-c1ccccc1
# Observed: cell-free assay
# Technique: competition with immobilised ligand
# Concentration: 0.1 µM
target,remaining binding [%]
"Dual specificity mitogen-activated protein kinase kinase 1 (MAP2K1, Homo sapiens, UniProt Q02750)",100
"Tyrosine-protein kinase ABL1, non-phosphorylated (ABL1, Homo sapiens, UniProt P00519)",81
"Mitogen-activated protein kinase 15 (MAPK15, Homo sapiens, UniProt Q8TD08)",100
"Phosphatidylinositol 4,5-bisphosphate 3-kinase catalytic subunit alpha isoform (PIK3CA, Homo sapiens, UniProt P42336, E545A)",100

# Set 4
# SMILES: CCC(=O)Nc1ccc2ncnc(Nc3cccc(Br)c3)c2c1
# Observed: enzyme activity
# Action: inhibitor
# Concentration: 0.5 µM
# Baseline: control
target,remaining activity
"MAP/microtubule affinity-regulating kinase 4 (MARK4, Homo sapiens, UniProt Q96L34)",80.2%
"Discoidin domain-containing receptor 2 (DDR2, Homo sapiens, UniProt Q16832)",109%
"Mitogen-activated protein kinase 1 (MAPK1, Homo sapiens, UniProt P28482)",77.7%
"Serine/threonine-protein kinase MRCK beta (CDC42BPB, Homo sapiens, UniProt Q9Y5S2)",114%
"Calcium/calmodulin-dependent protein kinase type IV (CAMK4, Homo sapiens, UniProt Q16566)",103%
"RAC-beta serine/threonine-protein kinase (AKT2, Homo sapiens, UniProt P31751)",102%
"Dual specificity protein kinase CLK3 (CLK3, Homo sapiens, UniProt P49761)",99.3%
"Vascular endothelial growth factor receptor 2 (KDR, Homo sapiens, UniProt P35968)",96.5%
"Misshapen-like kinase 1 (MINK1, Homo sapiens, UniProt Q8N4C8)",95.8%
"Mitogen-activated protein kinase 14 (MAPK14, Homo sapiens, UniProt Q16539)",82.8%
"Myosin-IIIb (MYO3B, Homo sapiens, UniProt Q8WXR4)",135%
"Hepatocyte growth factor receptor (MET, Homo sapiens, UniProt P08581)",103%
"Serine/threonine-protein kinase PAK 3 (PAK3, Homo sapiens, UniProt O75914)",105%
"Calcium/calmodulin-dependent protein kinase type 1B (PNCK, Homo sapiens, UniProt Q6P2M8)",96%

# For quick reference, copied from above (set 2):
Change,fold enrichment [fold]
T15P,3.79
T15R,3.01
K10A,2.23
